Measured values collected from several papers.

CCCCN1C[C@H](O)[C@@H](O)[C@@H](O)[C@H]1CO  IC50 (sample C patient fibroblasts; Gb3 level lowering, LC-MS/MS, measured: Gb3 d18:1/22:0; 216 h): 6.4 µM
Cn1cc(-c2ccc(-c3cncc(Cl)c3N3CCC4(CCNC4=O)CC3)cc2)cn1  log2 fold change (COLO 205; gene expression, microarray, measured: KCNN4 mRNA; concentration not given, 2 h; baseline: untreated cells): 2.19
Clc1ccc(C2(c3ccc(-c4cn[nH]c4)cc3)CCNCC2)cc1  relative cell number (SK-OV-3; ATP; 2D monolayer culture; 0.1 µM, 4 days; baseline: untreated): 91.7%
O=C(O)Cc1ccccc1O  z-scored log2 fold change (binding, equilibrium dialysis LC-MS; 5 µM, thermostabilized A2AR-BRIL construct; baseline: no-protein control, direction not given): -0.184
COc1cnc2cccc(N3CCc4c(cc(Cn5ccnc5C)cc4-c4cn(C)nc4C(F)(F)F)C3=O)c2c1  EC50 (HuH-1; cell growth, inhibitor; 120 h): > 30 µM
CCN1CCN(Cc2ccc(NC(=O)Nc3ccc(Oc4cc(NC)ncn4)cc3)cc2C(F)(F)F)CC1  cell index (iCell Cardiomyocytes (hiPSC-derived); cellular impedance; concentration not given, 24 h; baseline: control): 101%
CCn1cc(-c2cc(Cn3ccoc3=N)cc3c2CCN([C@@H](C)c2cc(OC)ccn2)C3=O)c(C(F)(F)F)n1  EC50 (HCC1195; cell growth; 120 h): 0.247 µM
Cc1cc(Nc2ncc(Cl)c(Nc3ccccc3S(=O)(=O)C(C)C)n2)c(OC(C)C)cc1C1CCNCC1  log2 fold change (CLB-GE; phosphoproteomics LC-MS/MS, measured: SLC20A2 phosphorylation; 200 nM, 60 min; baseline: untreated): -2.64
Cc1cc2c(F)c(Oc3ncnn4cc(OC[C@@H](C)O)c(C)c34)ccc2[nH]1  beat rate (iCell Cardiomyocytes (hiPSC-derived); xCELLigence Cardio impedance; concentration not given, 2 h; baseline: control): 71%
CN1CCN(c2ccc3nc(-c4c(N)c5c(F)cccc5[nH]c4=O)[nH]c3c2)CC1  fibulin-3 level (ARPE-19 HiBiT fibulin-3; HiBiT luminescence; 1.66 µM): -26.6%
O=C(/C=C/C=C/C=C/C1CCCCC1)NC1=C[C@@](O)(/C=C/C=C/C=C/C(=O)NC2=C(O)CCC2=O)[C@@H]2O[C@@H]2C1=O  GI50 (KYSE-180; cell growth, CellTiter-Glo; 78 h): 20.6 µM
O=C(c1ccc(/C=C/c2n[nH]c3ccccc23)cc1)N1CCNCC1  cell index (iCell Cardiomyocytes (hiPSC-derived); cellular impedance; concentration not given, 24 h; baseline: control): 106%
CCn1cc(-c2cc(Cn3ccnc3)cc3c2CCN([C@H](c2cc(OC)ccn2)C2CC2)C3=O)c(C(F)(F)F)n1  EC50 (DB; cell growth; 120 h): 20 µM
C#Cc1cccc(Nc2ncnc3cc(OCCOC)c(OCCOC)cc23)c1  cell index (iCell Cardiomyocytes (hiPSC-derived); cellular impedance; concentration not given, 24 h; baseline: control): 101%
CC(C)NCC(O)c1ccc(O)c(O)c1 (centres unmarked)  sarcomere length (mouse ventricular cardiomyocytes; dose not given, 0.175 s): 1.63 µm
C=CC(=O)Nc1cc2c(Nc3ccc(F)c(Cl)c3)ncnc2cc1OCCCN1CCOCC1  beat amplitude (iCell Cardiomyocytes (hiPSC-derived); xCELLigence Cardio impedance; concentration not given, 2 h; baseline: control): 98.3%
N[C@@H](CC(=O)O)C(=O)O  z-scored log2 fold change (binding, equilibrium dialysis LC-MS; 5 µM, thermostabilized A2AR-BRIL construct; baseline: no-protein control, direction not given): 0.302
